Experimental data gathered from unrelated publications.
Each line is one published result; not all experiments were run side by side. Several values in a cell are separate wells, animals, samples, runs or records. ± gives the spread as reported.

For `COc1ncnc(C2CC2)c1-c1ncc2cnn(Cc3ccc(-c4nc(C(F)(F)F)cn4C(C)C)cc3)c2n1`, the IC50 was 42600 nM (CHP-212; cell viability, SRB; mean of replicates).
The IC50 of `N#Cc1ccc(C[C@H](NC(=O)c2cc3ccccc3[nH]2)C(=O)N2CCc3ccccc32)cc1` is reported as > 50000 nM (human neutrophils; calcium mobilization, desensitization; together with: standard agonist).
For `COc1cc(C(=O)NS(=O)(=O)c2ccccc2C)ccc1Cc1cn(C)c2ccc(NC(=O)OC3CCCC3)cc12`, the IC50 was 13500 nM (HCT116 wild-type cells; native VRAC current, inhibitor, whole-cell patch clamp; pH 7.4, at +100 mV).
The IC50 of `Cc1[nH]c(/C=C2\C(=O)Nc3ccc(S(=O)(=O)N(C)c4cccc(Cl)c4)cc32)c(C)c1C(=O)N1CCN(C)CC1` is reported as 4320 ± 1180 nM (Rh36 (embryonal rhabdomyosarcoma); cell growth; 3 days).
With `OC(CCN1CCCCC1)(c1ccccc1)C1CC2C=CC1C2` (stereo not shown) the EC50 was 307 µM (Toxoplasma gondii; parasite growth; HFF, bradyzoite, alkaline-induced).
With `COc1cc(O)cc(/C=C/c2cccc(O)c2OC)c1` the IC50 was > 200000 nM (MDA-MB-231 breast cancer; cell viability, MTT; DMEM with 10% FBS; 48 h).
`CCCCCN1C[C@H](O)[C@@H](O)[C@H](O)[C@@H]1CO` has an IC50 of 700 nM (Sandhoff fibroblasts; lysosomal accumulation, LysoTracker staining; 8 days).
`NC(=O)NOCCCCCCCCCCCC[P+](c1ccccc1)(c1ccccc1)c1ccccc1` has an IC50 of > 4000 nM (mouse myeloid-derived suppressor cells; suppressive neutrophil differentiation, flow cytometry).
`Cc1nc(NC(=O)N2CCC[C@H]2C(N)=O)sc1-c1ccnc(C(C)(C)C(F)(F)F)c1` gave an IC50 of 57.4 nM (MDA-MB-453; western blot, refers to: phospho-PKB/Akt Ser473; 2 h).
`CCNc1nc2c(c(N3CC(=O)Nc4cc(OC)ccc43)n1)CCC2` gave an IC50 of 0.76 nM (panel, incl lines, paclitaxel resistant; cell proliferation, MTS; 72 h, mean over panel).
For `Cc1cc(Nc2ncc(Cl)c(Nc3ccccc3S(=O)(=O)C(C)C)n2)c(OC(C)C)cc1C1CCNCC1`, the IC50 was 52 nM (NCI-H2228 (EML4-ALK variant 3); cell viability).
For `C=CC(=O)N1CCC[C@@H](n2nc(-c3ccc(Oc4ccccc4)cc3)c3c(N)ncnc32)C1`, the IC50 was 250 nM (washed human platelets, healthy donors; ATP secretion, inhibitor, luminescence; together with: CRP 10 µg/mL).
`COc1cccc2c1C(=O)c1c(O)c3c(c(O)c1C2=O)C[C@@](O)(C(=O)CO)C[C@@H]3O[C@H]1C[C@H](N)[C@H](O)[C@H](C)O1` gave an IC50 of 47.3 nM and 45.9 nM and 47 nM (CHP-212 parental; cell viability, SRB).
`N#Cc1ccc(C[C@@H](NC(=O)c2cc3cc(F)ccc3[nH]2)C(=O)N2CCc3ccccc32)cc1` gave an IC50 of > 50000 nM (human neutrophils; calcium mobilization, desensitization; together with: standard agonist).
`C[C@H]1[C@H](OC(=O)CCC(=O)O)O[C@@H]2O[C@@]3(C)CC[C@H]4[C@H](C)CC[C@@H]1[C@@]24OO3` gave an IC50 of 29000 nM (primary AML blasts 4; cell viability; human; 96 h).
With `NS(=O)(=O)OC[C@@H]1C[C@@H](n2ccc3c(N[C@H]4CCc5ccccc54)ncnc32)C[C@@H]1O` the IC50 was 476 nM (CHP-212; cell viability, SRB; mean of replicates).
With `CN(C)c1ccc2cc(C(=O)NS(=O)(=O)c3ccccc3-c3ccccc3)oc2c1` the IC50 was > 20000 nM (JIMT-1; cell proliferation; 144 h).
For `C[C@H]1[C@@H](O)O[C@@H]2O[C@@]3(C)CC[C@H]4[C@H](C)CC[C@@H]1[C@@]24OO3`, the IC50 was > 50000 nM (7702 normal human cells; cell growth, CCK-8; 48 h).
`Oc1ccc2c(c1)OC[C@]1(O)Cc3cc(O)c(O)cc3[C@H]21` has an EC90 of 49.9 µM (Toxoplasma gondii; parasite growth, luciferase reporter; HFF, tachyzoite; 72 h).
With `N#Cc1ccc(C[C@H](Nc2nnc(-c3cccc(Br)c3)o2)C(=O)N2CCc3ccccc32)cc1` the IC50 was > 50000 nM (human neutrophils; calcium mobilization, desensitization; together with: standard agonist).
`C[C@H]1Oc2cc(cnc2N)-c2c(nn(C)c2C#N)CN(C)C(=O)c2ccc(F)cc21` has an IC50 of 2.2 nM (Ba/F3 EML4-ALK variant 1 S1206Y; cell viability).
`N#Cc1ccc(C[C@H](Nc2c(Nc3ccc(Br)cc3)c(=O)c2=O)C(=O)N2CCc3ccccc32)cc1` has an IC50 of 1200 ± 300 nM (human neutrophils; calcium mobilization, desensitization; together with: standard agonist).
The IC50 of `O=c1c(O[C@@H]2O[C@H](CO)[C@@H](O)[C@H](O)[C@H]2O)c(-c2ccc(O)cc2)oc2cc(O)cc(O)c12` is reported as > 200000 nM (T47D breast cancer; cell viability, MTT; DMEM with 10% FBS; 48 h).
`CC(=O)O[C@H]1C(=O)[C@@]2(C)[C@H]([C@H](OC(=O)c3ccccc3)[C@]3(O)C[C@H](OC(=O)[C@H](O)[C@@H](NC(=O)c4ccccc4)c4ccccc4)C(C)=C1C3(C)C)[C@]1(OC(C)=O)CO[C@@H]1C[C@@H]2O` gave an IC50 of 35.1 nM (CHP-212 parental; cell viability, SRB; mean of 3 runs).
With `CCCCN1C[C@H](O)[C@@H](O)[C@@H](O)[C@H]1CO` the IC50 was 15100 nM (sample H patient fibroblasts; GlcCer level lowering, LC-MS/MS, refers to: GlcCer d18:1/16:0; 216 h).
`O=c1c(O)c(-c2ccc(O)c(O)c2)oc2cc(O)cc(O)c12` has an IC50 of 81200 nM (SV-HUC-1; cell growth, CellTiter-Glo; 72 h).
For `N#Cc1ccc(C[C@H](Nc2nnc(-c3cccc(F)c3)o2)C(=O)N2CCc3ccccc32)cc1`, the IC50 was > 50000 nM (human neutrophils; calcium mobilization, desensitization; together with: standard agonist).
`C[C@@H]1CN(C(=O)c2ccc(NC(=O)c3cc(O[C@H](C)c4c(Cl)ccc(F)c4Cl)c(N)nn3)cc2)C[C@H](C)N1` gave an IC50 of 112 nM (Ba/F3 EML4-ALK v1; cell viability).
With `N#Cc1ccc(C[C@@H](Nc2nnc(-c3ccc(Br)cc3)o2)C(=O)N2CCc3ccccc32)cc1` the IC50 was > 50000 nM (human neutrophils; calcium mobilization, desensitization; together with: standard agonist).
With `Cc1nn(-c2nc3ccc(Cl)c(Cl)c3[nH]2)c(O)c1C1OC(=O)c2ccccc21` (stereo not shown) the IC50 was 2620 nM (RAW-ISG (mouse); IFN reporter gene, inhibitor, luciferase reporter; together with: HT-DNA).
`COc1cc(N2CCC(N3CCN(C)CC3)CC2)ccc1Nc1ncc(Cl)c(Nc2ccccc2S(=O)(=O)C(C)C)n1` has an IC50 of 360 ± 60 nM (Rh36 (embryonal rhabdomyosarcoma); cell growth; 3 days).
For `CC#CC(=O)N1CCC[C@H]1c1nc(-c2ccc(C(=O)Nc3ccccn3)cc2)c2c(N)nccn12`, the IC50 was 21200 nM (washed human platelets, healthy donors; platelet aggregation, inhibitor, light transmission aggregometry; 5 min preincubation, together with: CRP 10 µg/mL).
With `Cc1c(C(=O)O)ccc2c3n(nc12)[C@@H]1[C@H](C3)N(CC2CC2)[C@@]2(C(=O)Nc3cc(Cl)ccc32)[C@H]1c1cccc(Cl)c1F` the IC50 was 0.24 nM (well-differentiated liposarcoma cells; alamarBlue; unbound concentration).
With `N#Cc1ccc(C[C@@H](NC(=O)c2cc3cc([N+](=O)[O-])ccc3[nH]2)C(=O)N2CCc3ccccc32)cc1` the IC50 was > 50000 nM (human neutrophils; calcium mobilization, desensitization; together with: standard agonist).
For `COc1cc(N2CCC(N3CCN(C)CC3)CC2)ccc1Nc1ncc(Cl)c(Nc2ccccc2P(C)(C)=O)n1`, the IC50 was 109 nM (Ba/F3 EML4-ALK v1; cell viability).
For `O=C(c1c(F)ccc(NS(=O)(=O)N2CC[C@@H](F)C2)c1F)c1c[nH]c2ncc(-c3cnc(C4CC4)nc3)cc12`, the IC50 was > 30000 nM (primary keratinocytes; ERK phosphorylation, Western blot; 1 h).
`O=C(O)c1cccnc1Nc1cccc(C(F)(F)F)c1` has an IC50 of 145000 nM (HEK293A LATS1/2 double knockout; TEAD reporter gene, GTIIC luciferase; 24 h).
For `C[C@H](Nc1ccc2c(c1)OCCn1cc(N3C(=O)OC[C@H]3C(F)F)nc1-2)C(N)=O`, the IC50 was > 3000 nM (MDA-MB-453; western blot, refers to: phospho-S6 Ser235/Ser236; 2 h).
With `N#Cc1c(Oc2ccc(F)c(NC(=O)Cc3cccc(C(F)(F)F)c3)c2)ccc2nc(NC(=O)C3CC3)sc12` the IC50 was 6760 nM (primary keratinocytes; ERK phosphorylation, inhibitor, Western blot, refers to: p-ERK/total ERK; 1 h).
For `O=C(O)/C=C/c1ccccc1`, the IC50 was > 200000 nM (MDA-MB-231 breast cancer; cell viability, MTT; DMEM with 10% FBS; 48 h).
`C[C@H](Nc1ccc2c(c1)OCCn1cc(N3C(=O)OC[C@H]3C(F)F)nc1-2)C(N)=O` has an IC50 of 54.4 nM (MDA-MB-453; growth rate inhibition, CellTiter-Glo; 120 h).
For `CC[C@@]1([C@@H]2O[C@@H]([C@H]3O[C@@](O)(CO)[C@H](C)C[C@@H]3C)C[C@@H]2C)CC[C@H]([C@]2(C)CC[C@]3(C[C@H](O)[C@@H](C)[C@@H]([C@@H](C)[C@@H](OC)[C@H](C)C(=O)O)O3)O2)O1`, the IC50 was 221 ± 102 nM (MCF-10A; cell viability; 72 h).
The IC50 of `C[C@H](Nc1ccc2c(c1)OCCn1cc(N3C(=O)OC[C@H]3C(F)F)nc1-2)C(N)=O` is reported as 21 ± 6.6 nM (NCI-H1993 (PIK3CA WT, KRAS WT); basal AKT phosphorylation, HTRF, refers to: phospho-AKT; 4 h).
With `N#Cc1ccc(C[C@H](Nc2nnc(-c3cccc(Br)c3)s2)C(=O)N2CCc3ccccc32)cc1` the IC50 was > 50000 nM (human neutrophils; calcium mobilization, desensitization; together with: standard agonist).
The IC50 of `CC1(C)COc2ccc(F)cc2CN2c3nc4c(cnn4cc3OC[C@H]2C(F)F)C(=O)N1` is reported as 52.4 nM (Ba/F3 EML4-ALK v1; cell viability).
The IC50 of `CCc1oc2ccccc2c1C(=O)c1cc(Br)c(O)c(Br)c1` is reported as 21.5 nM (HEK-293T cells expressing URAT1; urate uptake, inhibitor; 30-60 min, 37 °C, together with: 10 µM [14C]-urate).

A few entries again:
With `N#Cc1ccc(C[C@@H](NC(=O)c2cc3cc([N+](=O)[O-])ccc3[nH]2)C(=O)N2CCc3ccccc32)cc1` the IC50 was > 50000 nM (human neutrophils; calcium mobilization, desensitization; together with: standard agonist).
`C[C@H](Nc1ccc2c(c1)OCCn1cc(N3C(=O)OC[C@H]3C(F)F)nc1-2)C(N)=O` has an IC50 of 54.4 nM (MDA-MB-453; growth rate inhibition, CellTiter-Glo; 120 h).
For `CC#CC(=O)N1CCC[C@H]1c1nc(-c2ccc(C(=O)Nc3ccccn3)cc2)c2c(N)nccn12`, the IC50 was 21200 nM (washed human platelets, healthy donors; platelet aggregation, inhibitor, light transmission aggregometry; 5 min preincubation, together with: CRP 10 µg/mL).
`Cc1nc(NC(=O)N2CCC[C@H]2C(N)=O)sc1-c1ccnc(C(C)(C)C(F)(F)F)c1` gave an IC50 of 57.4 nM (MDA-MB-453; western blot, refers to: phospho-PKB/Akt Ser473; 2 h).
`CCNc1nc2c(c(N3CC(=O)Nc4cc(OC)ccc43)n1)CCC2` gave an IC50 of 0.76 nM (panel, incl lines, paclitaxel resistant; cell proliferation, MTS; 72 h, mean over panel).
With `CN(C)c1ccc2cc(C(=O)NS(=O)(=O)c3ccccc3-c3ccccc3)oc2c1` the IC50 was > 20000 nM (JIMT-1; cell proliferation; 144 h).
For `COc1ncnc(C2CC2)c1-c1ncc2cnn(Cc3ccc(-c4nc(C(F)(F)F)cn4C(C)C)cc3)c2n1`, the IC50 was 42600 nM (CHP-212; cell viability, SRB; mean of replicates).
